Measurements collected from several papers.
Lines come from different studies, so protocols differ.
Target: 5-hydroxytryptamine receptor 1A (HTR1A, Homo sapiens, UniProt P08908)
Chain of UniProt P08908 (whole entry, looked up): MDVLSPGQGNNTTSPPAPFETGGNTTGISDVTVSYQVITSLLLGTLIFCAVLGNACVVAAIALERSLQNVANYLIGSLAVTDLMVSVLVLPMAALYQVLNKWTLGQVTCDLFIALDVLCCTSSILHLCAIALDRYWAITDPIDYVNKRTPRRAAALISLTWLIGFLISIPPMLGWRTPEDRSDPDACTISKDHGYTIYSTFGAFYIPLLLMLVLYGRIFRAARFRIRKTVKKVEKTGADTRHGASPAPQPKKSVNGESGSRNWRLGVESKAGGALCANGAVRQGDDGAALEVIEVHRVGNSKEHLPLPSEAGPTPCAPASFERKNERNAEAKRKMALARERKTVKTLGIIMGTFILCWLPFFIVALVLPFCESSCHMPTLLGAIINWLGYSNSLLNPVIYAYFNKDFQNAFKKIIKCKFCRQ

Compound | assay | system | setting | how to read | measurement | value
CN[C@]1(c2ccccc2Cl)CCCCC1=O | radioligand binding, agonist, radioligand displacement | – | 30 µM | – | inhibition | 11%
C[C@H](N)Cn1ncc2ccc3c(c21)CCCO3.Cl | inhibition, of cAMP, forskolin-induced, agonist | CHO cells | – | – | efficacy | 87%
CN1CCN(c2cc(-c3ccncc3)c(-c3ccc4ccccc4c3)nn2)CC1 | agonist, FLIPR | – | 12.5 µM | – | activation | -1.4%
O=c1ccc2ccccc2o1 | agonist radioligand binding | – | 10 µM, SafetyScreen44 | – | inhibition | 2.44%
Cn1cccc1-c1cccnc1 | binding | – | 50 µM | – | inhibition | -1.38%
CC(C)C[C@H]1C(=O)N2CCC[C@H]2[C@]2(O)O[C@](NC(=O)[C@@H]3C=C4c5cccc6[nH]c(Br)c(c56)C[C@H]4[N+](C)(C)C3)(C(C)C)C(=O)N12.[I-] | – | – | 100 nM, added: [3H]8-OH-DPAT | – | radioligand binding inhibition | no effect
CN1CCN(c2nc(N)c3ccccc3n2)CC1 | radioligand binding, radioligand competition binding | – | 0.1 µM, mean of two | baseline: control specific binding | inhibition | 5%
CCCN(CCC)C1CCc2cccc(O)c2C1 (centres unmarked) | binding, agonist, radioligand binding | – | – | – | Hill coefficient | 1.2

For quick reference, copied from above:
Compound | assay | system | setting | how to read | measurement | value
CCCN(CCC)C1CCc2cccc(O)c2C1 (centres unmarked) | binding, agonist, radioligand binding | – | – | – | Hill coefficient | 1.2
